Measurements pooled from the literature.
Lines come from different studies, so protocols differ. Several values in a cell are separate wells, animals, samples, runs or records. ± gives the spread as reported.
Palmitoyl-protein thioesterase 1: Palmitoyl-protein thioesterase 1 (Homo sapiens, UniProt P50897)
Sequence of UniProt P50897 (whole entry, looked up): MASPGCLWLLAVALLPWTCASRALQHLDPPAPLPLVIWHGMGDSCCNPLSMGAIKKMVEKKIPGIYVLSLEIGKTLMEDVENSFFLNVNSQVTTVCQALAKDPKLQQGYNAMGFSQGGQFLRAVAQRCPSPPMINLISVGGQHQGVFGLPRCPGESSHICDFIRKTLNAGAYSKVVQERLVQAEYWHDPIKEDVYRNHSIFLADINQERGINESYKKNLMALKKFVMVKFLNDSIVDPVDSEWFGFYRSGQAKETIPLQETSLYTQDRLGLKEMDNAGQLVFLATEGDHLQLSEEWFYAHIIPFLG
HTR1E: 5-hydroxytryptamine receptor 1E (HTR1E, Homo sapiens, UniProt P28566)
Sequence of UniProt P28566 (whole entry, looked up): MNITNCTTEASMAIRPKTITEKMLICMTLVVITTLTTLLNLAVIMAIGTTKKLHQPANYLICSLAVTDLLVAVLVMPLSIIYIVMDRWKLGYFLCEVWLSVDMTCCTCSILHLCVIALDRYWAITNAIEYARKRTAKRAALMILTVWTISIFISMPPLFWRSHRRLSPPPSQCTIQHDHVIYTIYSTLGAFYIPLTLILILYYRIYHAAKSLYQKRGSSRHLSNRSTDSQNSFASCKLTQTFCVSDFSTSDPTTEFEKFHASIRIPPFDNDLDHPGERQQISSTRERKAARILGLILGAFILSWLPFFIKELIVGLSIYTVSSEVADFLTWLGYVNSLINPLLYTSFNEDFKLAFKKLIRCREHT
Luciferin 4-monooxygenase: Luciferin 4-monooxygenase (Photinus pyralis, UniProt P08659)
Sequence of UniProt Q8IWT6 (whole entry, unmodified, looked up): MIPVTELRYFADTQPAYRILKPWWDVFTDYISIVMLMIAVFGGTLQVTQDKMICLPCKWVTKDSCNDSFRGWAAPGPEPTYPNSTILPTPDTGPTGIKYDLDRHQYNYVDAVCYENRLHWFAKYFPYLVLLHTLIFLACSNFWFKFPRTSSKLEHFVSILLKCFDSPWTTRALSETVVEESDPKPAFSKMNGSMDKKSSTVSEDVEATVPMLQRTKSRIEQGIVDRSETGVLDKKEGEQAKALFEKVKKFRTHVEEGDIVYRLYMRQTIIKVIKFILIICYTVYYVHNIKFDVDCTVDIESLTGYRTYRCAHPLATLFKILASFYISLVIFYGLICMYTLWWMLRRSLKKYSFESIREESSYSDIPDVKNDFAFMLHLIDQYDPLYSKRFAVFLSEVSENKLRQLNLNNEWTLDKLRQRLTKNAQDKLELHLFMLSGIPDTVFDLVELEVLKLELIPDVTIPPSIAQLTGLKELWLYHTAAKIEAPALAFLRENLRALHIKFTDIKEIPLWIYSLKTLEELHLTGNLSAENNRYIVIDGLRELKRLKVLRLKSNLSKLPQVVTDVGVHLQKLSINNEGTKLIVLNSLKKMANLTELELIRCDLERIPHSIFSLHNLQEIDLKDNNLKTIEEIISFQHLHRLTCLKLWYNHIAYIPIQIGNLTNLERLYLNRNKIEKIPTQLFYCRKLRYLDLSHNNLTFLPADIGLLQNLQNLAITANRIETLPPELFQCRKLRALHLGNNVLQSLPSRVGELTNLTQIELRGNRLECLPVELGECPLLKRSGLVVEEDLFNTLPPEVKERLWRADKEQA
Sequence of UniProt Q9HCR9 (whole entry, looked up): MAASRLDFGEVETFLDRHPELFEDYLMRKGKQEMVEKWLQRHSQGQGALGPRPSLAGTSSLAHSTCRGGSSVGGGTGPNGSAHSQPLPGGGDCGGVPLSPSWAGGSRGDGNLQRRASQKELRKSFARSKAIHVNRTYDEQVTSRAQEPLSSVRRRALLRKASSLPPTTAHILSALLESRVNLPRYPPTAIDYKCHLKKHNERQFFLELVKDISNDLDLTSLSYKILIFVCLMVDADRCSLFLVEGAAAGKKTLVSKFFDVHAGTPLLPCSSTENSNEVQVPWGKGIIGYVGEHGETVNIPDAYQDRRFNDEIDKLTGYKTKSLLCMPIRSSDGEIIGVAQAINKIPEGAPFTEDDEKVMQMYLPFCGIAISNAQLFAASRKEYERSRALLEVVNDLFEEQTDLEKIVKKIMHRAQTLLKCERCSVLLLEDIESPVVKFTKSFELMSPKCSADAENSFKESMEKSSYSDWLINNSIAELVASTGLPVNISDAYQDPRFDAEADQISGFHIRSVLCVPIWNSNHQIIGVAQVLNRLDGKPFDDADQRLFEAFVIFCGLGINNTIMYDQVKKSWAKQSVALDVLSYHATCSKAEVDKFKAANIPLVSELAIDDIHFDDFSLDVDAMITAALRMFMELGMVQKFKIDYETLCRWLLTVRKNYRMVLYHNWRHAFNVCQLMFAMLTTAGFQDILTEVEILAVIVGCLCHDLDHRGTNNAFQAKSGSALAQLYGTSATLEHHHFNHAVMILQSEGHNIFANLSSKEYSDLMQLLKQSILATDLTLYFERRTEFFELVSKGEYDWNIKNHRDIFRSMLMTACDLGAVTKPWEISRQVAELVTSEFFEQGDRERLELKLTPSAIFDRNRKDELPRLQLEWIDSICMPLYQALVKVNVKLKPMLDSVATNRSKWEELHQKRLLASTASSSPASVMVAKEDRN
Sequence of UniProt P08659 (whole entry, looked up): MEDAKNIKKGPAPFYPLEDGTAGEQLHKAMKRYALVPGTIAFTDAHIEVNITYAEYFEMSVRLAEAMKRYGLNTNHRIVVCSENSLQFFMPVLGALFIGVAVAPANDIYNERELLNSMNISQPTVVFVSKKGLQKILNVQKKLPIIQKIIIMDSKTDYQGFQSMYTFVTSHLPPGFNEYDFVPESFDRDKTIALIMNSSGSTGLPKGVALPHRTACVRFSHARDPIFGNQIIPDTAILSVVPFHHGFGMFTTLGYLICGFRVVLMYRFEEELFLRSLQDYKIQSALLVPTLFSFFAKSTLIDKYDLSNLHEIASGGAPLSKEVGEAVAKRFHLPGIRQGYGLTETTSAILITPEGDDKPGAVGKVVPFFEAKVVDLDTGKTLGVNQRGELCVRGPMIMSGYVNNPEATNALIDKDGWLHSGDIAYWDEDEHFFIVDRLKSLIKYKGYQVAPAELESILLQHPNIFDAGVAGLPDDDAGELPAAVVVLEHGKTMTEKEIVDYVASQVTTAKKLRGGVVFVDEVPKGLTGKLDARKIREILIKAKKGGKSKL
Sequence of UniProt Q16853 (whole entry, looked up): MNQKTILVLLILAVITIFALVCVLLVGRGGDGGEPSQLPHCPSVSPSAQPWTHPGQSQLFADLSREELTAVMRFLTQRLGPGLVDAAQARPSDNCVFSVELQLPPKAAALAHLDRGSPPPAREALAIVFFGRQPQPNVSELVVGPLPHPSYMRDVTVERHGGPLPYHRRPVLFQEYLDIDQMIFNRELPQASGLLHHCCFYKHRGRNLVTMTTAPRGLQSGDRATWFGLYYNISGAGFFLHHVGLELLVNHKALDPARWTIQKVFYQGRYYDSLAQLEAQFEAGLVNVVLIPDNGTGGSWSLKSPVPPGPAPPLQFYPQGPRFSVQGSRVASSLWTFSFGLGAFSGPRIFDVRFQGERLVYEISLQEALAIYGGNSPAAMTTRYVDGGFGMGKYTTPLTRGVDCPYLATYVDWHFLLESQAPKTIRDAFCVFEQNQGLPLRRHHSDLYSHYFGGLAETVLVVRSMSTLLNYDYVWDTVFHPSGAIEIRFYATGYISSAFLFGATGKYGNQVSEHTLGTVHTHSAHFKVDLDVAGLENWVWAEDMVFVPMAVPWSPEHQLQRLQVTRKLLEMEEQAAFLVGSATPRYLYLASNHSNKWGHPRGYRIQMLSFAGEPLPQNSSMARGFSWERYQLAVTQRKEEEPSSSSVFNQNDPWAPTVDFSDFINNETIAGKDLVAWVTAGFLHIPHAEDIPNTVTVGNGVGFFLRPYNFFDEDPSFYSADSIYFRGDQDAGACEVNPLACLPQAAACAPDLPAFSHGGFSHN
Sequence of UniProt P07237 (whole entry, looked up): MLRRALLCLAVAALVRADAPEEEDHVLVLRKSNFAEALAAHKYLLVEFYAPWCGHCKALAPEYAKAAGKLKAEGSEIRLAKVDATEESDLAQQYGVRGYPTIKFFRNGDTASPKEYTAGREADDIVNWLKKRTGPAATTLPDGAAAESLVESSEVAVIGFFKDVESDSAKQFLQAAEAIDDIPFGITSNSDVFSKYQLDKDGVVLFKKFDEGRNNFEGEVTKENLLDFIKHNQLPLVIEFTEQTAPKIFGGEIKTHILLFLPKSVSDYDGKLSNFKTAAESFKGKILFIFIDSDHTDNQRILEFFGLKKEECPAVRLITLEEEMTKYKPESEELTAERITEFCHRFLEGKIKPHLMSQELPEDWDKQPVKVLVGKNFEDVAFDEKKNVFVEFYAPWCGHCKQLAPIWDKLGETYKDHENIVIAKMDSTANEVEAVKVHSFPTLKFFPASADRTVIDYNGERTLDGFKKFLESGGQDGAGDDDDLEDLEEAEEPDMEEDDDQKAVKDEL
Sequence of UniProt P21728 (whole entry, looked up): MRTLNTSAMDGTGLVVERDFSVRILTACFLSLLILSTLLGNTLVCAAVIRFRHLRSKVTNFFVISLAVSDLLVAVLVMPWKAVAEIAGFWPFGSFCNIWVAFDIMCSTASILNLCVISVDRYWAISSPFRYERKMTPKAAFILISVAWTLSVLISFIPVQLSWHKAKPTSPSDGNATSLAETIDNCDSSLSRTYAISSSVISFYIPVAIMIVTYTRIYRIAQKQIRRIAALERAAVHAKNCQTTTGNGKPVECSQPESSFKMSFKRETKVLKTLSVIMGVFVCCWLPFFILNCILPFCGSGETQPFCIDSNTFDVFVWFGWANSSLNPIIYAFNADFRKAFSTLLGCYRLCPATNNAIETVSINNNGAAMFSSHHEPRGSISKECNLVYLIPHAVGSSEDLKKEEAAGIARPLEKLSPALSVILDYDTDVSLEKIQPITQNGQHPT

SMILES = Nc1ncnc2[nH]cnc12; target = Gelsolin, peptide (GSN, Homo sapiens, UniProt P06396); test = gelsolin peptide aggregation, inhibitor, ThT fluorescence; setting = 100 µM, 12 h, 37 °C; inhibition = 15%
SMILES = O=c1c(O)c(-c2ccc(O)cc2)oc2ccccc12; target = Palmitoyl-protein thioesterase 1; test = Spectrum Collection screen; setting = concentration not given, together with: substrate 20 µM; inhibition = 64.2%
SMILES = Cc1noc(NS(=O)(=O)c2ccc(N=NN(O)c3ccccc3)cc2)c1C; target = α-glucosidase, rat intestine; test = enzyme activity; setting = 60 µg/mL, together with: 4-nitrophenyl α-D-glucopyranoside; inhibition = 15 ± 0.26%
SMILES = OC[C@H]1O[C@@H](Oc2cc3c(O)cc(O)cc3[o+]c2-c2ccc(O)c(O)c2)[C@H](O)[C@@H](O)[C@H]1O; target = Adhesin FmlH, lectin domain (Escherichia coli, UniProt Q1RBS0); test = binding to desialylated mucin, ELISA competition; system = UPEC UTI89; setting = 100 µM; inhibition = 28.8 ± 6.5%
SMILES = Cc1ccc(OC[C@H]2CN(CCN3CCc4ccccc43)CCO2)cn1; target = HTR1E; test = radioligand binding; setting = concentration not given, together with: [3H]5-HT; inhibition = -11.7%
SMILES = O=C(c1ccc(F)cc1)N(Cc1ccccc1)C1CCCCC1; target = SLC6A2 (Homo sapiens, UniProt P23975); setting = 10 µM; inhibition = 24%
SMILES = CCCCCC/C=C1\C=C(C(F)(F)F)c2cc3c(cc21)OCCO3; target = P4HB (Homo sapiens, UniProt P07237); test = enzyme activity, inhibitor, insulin reduction; setting = concentration not given, biochemical; inhibition = no effect
SMILES = Cc1ccc2nc(O)c(CCC(=O)N3CCSCC3)cc2c1; target = Luciferin 4-monooxygenase; test = luciferase luminescence, inhibitor; system = cell-free; setting = 50 µM, counter-screen; inhibition = 75.1%
SMILES = Cc1cc(NS(=O)(=O)c2ccc(N=NN(C)O)cc2)no1; target = α-glucosidase, rat intestine; test = enzyme activity; setting = 180 µg/mL, together with: 4-nitrophenyl α-D-glucopyranoside; inhibition = 42.5%
SMILES = CCc1nn(C)c2nc(-c3ccc(C(=O)O)cc3)nc(NCc3ccc(F)cc3)c12; target = PDE11A (Homo sapiens, UniProt Q9HCR9); test = enzyme activity; setting = 10 µM, together with: [3H]cAMP; inhibition = 59.1%
SMILES = Cc1cccc(N(O)N=Nc2ccc(S(=O)(=O)Nc3onc(C)c3C)cc2)c1; target = α-glucosidase, rat intestine; test = enzyme activity; setting = 60 µg/mL, together with: 4-nitrophenyl α-D-glucopyranoside; inhibition = 12.5 ± 0.87%
SMILES = COc1cc(C(=O)NS(=O)(=O)c2ccccc2C)ccc1Cc1cn(C)c2ccc(NC(=O)OC3CCCC3)cc12; target = LRRC8A/LRRC8C (Homo sapiens, UniProt Q8IWT6+Q8TDW0, Y124F/Y126F); test = ion current, whole-cell patch clamp; system = HCT LRRC8-/- cells; setting = 1 µM, +100 mV, Y124F/Y126F heteromers; inhibition = 6.42% and 2.37% and -3.09% and -6.6% and -2.51%
SMILES = CCCNC(C)(C)COC(=O)c1ccccc1; target = Palmitoyl-protein thioesterase 1; test = Spectrum Collection screen; setting = concentration not given, together with: substrate 20 µM; inhibition = 61.6%
SMILES = NC/C(=C\F)COc1cccc(Cn2c(=S)[nH]c(=O)c3[nH]cnc32)c1; target = AOC3 (Homo sapiens, UniProt Q16853); test = H2O2 production, Amplex Red; setting = 30 µM, recombinant human enzyme; inhibition = 99.8%
SMILES = c1cncc(OC[C@H]2CN(CCN3CCc4ccccc43)CCO2)c1; target = HTR1E; test = radioligand binding; setting = concentration not given, together with: [3H]5-HT; inhibition = -9%
SMILES = CC[C@@H]1[C@H](F)C(=O)N[C@@H]1COc1nccc2cc(C(N)=O)c(OC)cc12; target = IKBKE (Homo sapiens, UniProt Q14164); test = ATP-site probe binding, ActivX profiling; system = THP-1 cell lysate; setting = 0.2 mM, Lys1 site; inhibition = 30.8%
SMILES = Cc1noc(NS(=O)(=O)c2ccc(N=NN(C)O)cc2)c1C; target = α-glucosidase, rat intestine; test = enzyme activity; setting = 120 µg/mL, together with: 4-nitrophenyl α-D-glucopyranoside; inhibition = 22.5 ± 0.04%
SMILES = Cc1ccc(C2=NC3(CCN(C)CC3)NC(c3ccccc3O)C2)cc1 (centres unmarked); target = Luciferin 4-monooxygenase; test = luciferase luminescence, inhibitor; system = cell-free; setting = 50 µM, counter-screen; inhibition = 8.42%
SMILES = Cc1cccc(N(O)N=Nc2ccc(S(=O)(=O)Nc3cc(C)on3)cc2)c1; target = α-glucosidase, rat intestine; test = enzyme activity; setting = 20 µg/mL, together with: 4-nitrophenyl α-D-glucopyranoside; inhibition = 7.5 ± 0.54%
SMILES = Cc1ncccc1OC[C@H]1CN(CCN2CCc3ccccc32)CCO1; target = DRD1 (Homo sapiens, UniProt P21728); test = radioligand binding; setting = concentration not given, together with: [3H]SCH23390; inhibition = 44%

Excerpt of the above:
SMILES = O=c1c(O)c(-c2ccc(O)cc2)oc2ccccc12; target = Palmitoyl-protein thioesterase 1; test = Spectrum Collection screen; setting = concentration not given, together with: substrate 20 µM; inhibition = 64.2%
SMILES = Cc1ccc2nc(O)c(CCC(=O)N3CCSCC3)cc2c1; target = Luciferin 4-monooxygenase; test = luciferase luminescence, inhibitor; system = cell-free; setting = 50 µM, counter-screen; inhibition = 75.1%
